Results collected from several papers.
Compare with care: the assays were run in different laboratories. Several values in a cell are separate wells, animals, samples, runs or records. ± gives the spread as reported.
Tumor necrosis factor receptor superfamily member 1A extracellular domain: Tumor necrosis factor receptor superfamily member 1A, extracellular domain (Homo sapiens, UniProt P19438)
Sequence of UniProt P19438 (whole entry, looked up): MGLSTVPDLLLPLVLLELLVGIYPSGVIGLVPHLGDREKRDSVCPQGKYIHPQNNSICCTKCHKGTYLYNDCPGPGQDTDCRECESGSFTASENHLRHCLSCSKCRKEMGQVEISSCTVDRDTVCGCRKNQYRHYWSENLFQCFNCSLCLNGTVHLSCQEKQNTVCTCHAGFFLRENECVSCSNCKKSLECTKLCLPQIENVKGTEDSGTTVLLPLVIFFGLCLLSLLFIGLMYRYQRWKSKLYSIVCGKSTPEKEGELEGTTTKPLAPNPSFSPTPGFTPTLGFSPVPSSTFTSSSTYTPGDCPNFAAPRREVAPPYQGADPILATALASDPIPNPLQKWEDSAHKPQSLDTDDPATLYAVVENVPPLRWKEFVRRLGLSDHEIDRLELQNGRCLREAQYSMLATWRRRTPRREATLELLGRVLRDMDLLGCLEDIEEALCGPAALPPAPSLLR
HDAC5: Histone deacetylase 5 (HDAC5, Homo sapiens, UniProt Q9UQL6)
Sequence of UniProt Q9UQL6 (whole entry, looked up): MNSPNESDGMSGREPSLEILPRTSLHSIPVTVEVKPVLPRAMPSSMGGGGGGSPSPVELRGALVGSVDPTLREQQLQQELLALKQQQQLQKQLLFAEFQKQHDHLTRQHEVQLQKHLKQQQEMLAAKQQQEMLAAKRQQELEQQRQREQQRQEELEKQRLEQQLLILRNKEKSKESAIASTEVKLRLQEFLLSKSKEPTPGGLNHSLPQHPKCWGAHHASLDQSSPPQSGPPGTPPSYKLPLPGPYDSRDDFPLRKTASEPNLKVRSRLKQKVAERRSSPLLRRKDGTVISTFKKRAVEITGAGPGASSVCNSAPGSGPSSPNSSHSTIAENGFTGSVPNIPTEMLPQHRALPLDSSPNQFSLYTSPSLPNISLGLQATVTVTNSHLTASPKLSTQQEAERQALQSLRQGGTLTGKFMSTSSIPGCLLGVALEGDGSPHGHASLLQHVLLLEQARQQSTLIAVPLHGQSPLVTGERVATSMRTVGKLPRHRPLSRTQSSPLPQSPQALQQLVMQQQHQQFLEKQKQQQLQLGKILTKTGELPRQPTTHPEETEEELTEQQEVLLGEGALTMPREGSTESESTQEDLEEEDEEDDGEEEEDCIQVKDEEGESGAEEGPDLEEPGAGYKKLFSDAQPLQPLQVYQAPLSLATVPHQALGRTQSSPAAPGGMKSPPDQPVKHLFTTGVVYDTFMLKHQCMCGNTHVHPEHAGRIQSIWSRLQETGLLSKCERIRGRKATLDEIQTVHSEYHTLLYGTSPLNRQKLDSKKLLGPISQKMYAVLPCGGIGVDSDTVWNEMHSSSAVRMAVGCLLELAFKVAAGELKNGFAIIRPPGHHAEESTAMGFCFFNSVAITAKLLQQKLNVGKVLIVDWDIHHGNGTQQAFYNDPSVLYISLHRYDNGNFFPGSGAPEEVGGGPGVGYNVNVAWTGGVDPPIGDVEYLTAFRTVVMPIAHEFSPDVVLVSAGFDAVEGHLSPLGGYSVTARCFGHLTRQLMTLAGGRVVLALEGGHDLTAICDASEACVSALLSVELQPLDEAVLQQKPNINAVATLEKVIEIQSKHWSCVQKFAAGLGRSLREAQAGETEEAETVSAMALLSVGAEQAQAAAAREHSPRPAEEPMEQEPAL
SCN8A C-terminal domain: Sodium channel protein type 8 subunit alpha, C-terminal domain (SCN8A, Homo sapiens, UniProt Q9UQD0)
Sequence of UniProt Q9UQD0 (whole entry, looked up): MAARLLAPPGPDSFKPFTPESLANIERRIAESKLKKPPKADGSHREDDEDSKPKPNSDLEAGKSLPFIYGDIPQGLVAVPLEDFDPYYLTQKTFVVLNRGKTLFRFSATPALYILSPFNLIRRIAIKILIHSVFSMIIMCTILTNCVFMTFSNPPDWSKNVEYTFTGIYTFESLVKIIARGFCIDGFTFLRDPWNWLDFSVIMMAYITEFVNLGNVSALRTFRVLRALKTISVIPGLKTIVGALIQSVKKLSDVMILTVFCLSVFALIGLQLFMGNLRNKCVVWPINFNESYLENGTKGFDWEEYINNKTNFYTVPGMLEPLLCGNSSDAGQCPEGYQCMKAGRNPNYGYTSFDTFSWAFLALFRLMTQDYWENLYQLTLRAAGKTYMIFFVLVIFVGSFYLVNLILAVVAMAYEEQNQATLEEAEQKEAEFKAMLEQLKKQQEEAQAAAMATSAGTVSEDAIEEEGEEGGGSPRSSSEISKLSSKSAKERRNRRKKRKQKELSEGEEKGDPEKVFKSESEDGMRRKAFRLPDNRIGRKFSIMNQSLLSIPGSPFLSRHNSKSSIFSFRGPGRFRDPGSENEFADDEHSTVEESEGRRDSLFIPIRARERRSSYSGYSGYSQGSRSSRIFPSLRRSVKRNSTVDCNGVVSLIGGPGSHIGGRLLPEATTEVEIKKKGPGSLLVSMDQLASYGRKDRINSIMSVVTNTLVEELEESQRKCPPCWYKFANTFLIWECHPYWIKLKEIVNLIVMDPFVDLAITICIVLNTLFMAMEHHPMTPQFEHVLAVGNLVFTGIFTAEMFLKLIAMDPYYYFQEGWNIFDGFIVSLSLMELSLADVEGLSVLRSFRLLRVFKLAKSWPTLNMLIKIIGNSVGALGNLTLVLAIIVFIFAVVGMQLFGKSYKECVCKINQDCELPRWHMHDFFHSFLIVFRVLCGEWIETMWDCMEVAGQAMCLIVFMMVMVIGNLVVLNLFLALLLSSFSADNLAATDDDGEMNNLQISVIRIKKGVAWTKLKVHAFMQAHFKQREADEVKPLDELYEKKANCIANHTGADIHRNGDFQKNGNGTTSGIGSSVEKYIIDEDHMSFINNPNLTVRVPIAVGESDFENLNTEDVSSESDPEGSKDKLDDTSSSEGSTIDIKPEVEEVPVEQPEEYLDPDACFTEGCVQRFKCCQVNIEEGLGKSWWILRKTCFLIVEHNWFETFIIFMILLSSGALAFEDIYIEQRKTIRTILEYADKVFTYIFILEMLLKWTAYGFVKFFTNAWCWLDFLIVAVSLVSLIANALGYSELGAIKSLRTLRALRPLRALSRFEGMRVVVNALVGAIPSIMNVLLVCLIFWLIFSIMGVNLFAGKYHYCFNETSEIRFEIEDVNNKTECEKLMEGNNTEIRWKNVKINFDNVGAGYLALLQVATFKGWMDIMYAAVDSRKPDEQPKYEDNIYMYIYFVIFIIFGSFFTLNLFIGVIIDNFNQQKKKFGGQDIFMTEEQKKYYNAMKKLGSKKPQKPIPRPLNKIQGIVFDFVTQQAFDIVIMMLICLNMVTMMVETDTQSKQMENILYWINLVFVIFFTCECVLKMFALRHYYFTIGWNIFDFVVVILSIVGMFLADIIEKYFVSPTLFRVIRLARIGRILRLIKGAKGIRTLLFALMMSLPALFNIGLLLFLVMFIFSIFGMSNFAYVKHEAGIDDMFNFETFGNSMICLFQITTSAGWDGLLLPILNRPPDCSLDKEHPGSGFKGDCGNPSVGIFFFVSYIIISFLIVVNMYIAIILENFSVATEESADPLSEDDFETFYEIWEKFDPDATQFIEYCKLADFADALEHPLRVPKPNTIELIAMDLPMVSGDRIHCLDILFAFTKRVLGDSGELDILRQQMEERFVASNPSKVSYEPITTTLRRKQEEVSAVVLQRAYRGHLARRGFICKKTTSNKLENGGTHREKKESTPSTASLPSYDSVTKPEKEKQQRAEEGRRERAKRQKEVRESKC
GATD3: Glutamine amidotransferase-like class 1 domain-containing protein 3, mitochondrial (GATD3, Homo sapiens, UniProt P0DPI2)
Sequence of UniProt P0DPI2 (whole entry, looked up): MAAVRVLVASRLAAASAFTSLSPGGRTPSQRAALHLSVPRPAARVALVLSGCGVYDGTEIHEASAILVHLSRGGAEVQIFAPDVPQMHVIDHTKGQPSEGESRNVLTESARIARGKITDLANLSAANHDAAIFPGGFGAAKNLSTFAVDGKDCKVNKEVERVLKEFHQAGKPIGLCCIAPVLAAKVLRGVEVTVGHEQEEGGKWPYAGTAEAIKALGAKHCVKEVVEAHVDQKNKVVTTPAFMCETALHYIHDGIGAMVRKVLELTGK
USP5 ZnF-UBD domain: Ubiquitin carboxyl-terminal hydrolase 5, ZnF-UBD domain (USP5, Homo sapiens, UniProt P45974)
Sequence of UniProt P45974 (whole entry, looked up): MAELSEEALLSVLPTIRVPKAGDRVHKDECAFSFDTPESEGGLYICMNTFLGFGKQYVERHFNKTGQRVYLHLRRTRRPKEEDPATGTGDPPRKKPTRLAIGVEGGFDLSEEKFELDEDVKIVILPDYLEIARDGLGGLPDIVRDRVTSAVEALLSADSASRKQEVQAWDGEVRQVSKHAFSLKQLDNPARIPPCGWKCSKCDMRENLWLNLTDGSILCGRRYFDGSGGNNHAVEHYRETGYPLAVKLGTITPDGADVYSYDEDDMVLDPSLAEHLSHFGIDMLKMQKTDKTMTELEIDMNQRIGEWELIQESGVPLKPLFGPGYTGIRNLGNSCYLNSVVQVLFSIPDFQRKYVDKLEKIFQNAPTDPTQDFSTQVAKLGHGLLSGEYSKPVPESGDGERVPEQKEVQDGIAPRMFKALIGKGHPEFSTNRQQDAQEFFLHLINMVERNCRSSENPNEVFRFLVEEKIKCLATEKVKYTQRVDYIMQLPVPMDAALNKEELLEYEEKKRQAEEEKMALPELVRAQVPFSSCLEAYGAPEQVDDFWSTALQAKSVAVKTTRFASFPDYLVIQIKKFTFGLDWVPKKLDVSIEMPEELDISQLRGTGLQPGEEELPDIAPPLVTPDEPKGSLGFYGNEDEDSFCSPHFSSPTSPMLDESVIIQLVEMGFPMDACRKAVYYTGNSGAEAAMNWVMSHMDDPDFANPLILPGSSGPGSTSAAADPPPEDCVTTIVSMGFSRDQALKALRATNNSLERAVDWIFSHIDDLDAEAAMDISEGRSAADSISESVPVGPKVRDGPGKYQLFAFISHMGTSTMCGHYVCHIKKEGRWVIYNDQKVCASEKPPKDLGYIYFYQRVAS
Sequence of UniProt P40337 (whole entry, looked up): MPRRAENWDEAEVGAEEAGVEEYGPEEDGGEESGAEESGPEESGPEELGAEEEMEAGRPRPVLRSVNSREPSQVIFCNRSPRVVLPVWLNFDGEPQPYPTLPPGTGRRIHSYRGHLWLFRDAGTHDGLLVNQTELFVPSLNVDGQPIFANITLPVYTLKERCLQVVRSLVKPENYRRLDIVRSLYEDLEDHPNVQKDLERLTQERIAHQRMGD
Sequence of UniProt Q96F10 (whole entry, looked up): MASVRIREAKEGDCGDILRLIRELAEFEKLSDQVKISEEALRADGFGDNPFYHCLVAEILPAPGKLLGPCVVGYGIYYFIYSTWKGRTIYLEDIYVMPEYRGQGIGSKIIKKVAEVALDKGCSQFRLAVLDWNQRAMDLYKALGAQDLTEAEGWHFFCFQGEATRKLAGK

Structure (SMILES)	target	assay	system	conditions	Kd
C=CC(=O)N1CCN(c2nc(OC[C@@H]3CCCN3C)nc3c(F)c(-c4nc(N)cc(C)c4C(F)(F)F)c(Cl)cc23)[C@@H](C)C1	GTPase KRas, GDP-bound (KRAS, Homo sapiens, UniProt P01116)	–	–	–	0.65 ± 0.042 µM
O=C(O)c1cc(-c2ccc3c(c2)OCCO3)ccn1	Tumor necrosis factor receptor superfamily member 1A extracellular domain	SPR OneStep	–	immobilized target	1423 ± 1 µM
O=[N+]([O-])c1cc(C(F)(F)F)ccc1NCc1ccsc1	Endothelial PAS domain-containing protein 1, PAS-B domain (EPAS1, Homo sapiens, UniProt Q99814, N288A)	ITC, reverse mode	–	25 °C	0.5 ± 0.04 µM
C=CC1=C(C)/C(=C/c2[nH]c(Cc3[nH]c(/C=C4\NC(=O)C(C)=C4C=C)c(C)c3CCC(=O)O)c(CCC(=O)O)c2C)NC1=O	ROCK2 (Homo sapiens, UniProt O75116)	binding, microscale thermophoresis	HEK293T cell lysate	–	0.136 ± 0.0765 µM
O=C(O)c1cc(-c2ccccc2O)ccn1	Tumor necrosis factor receptor superfamily member 1A extracellular domain	SPR OneStep	–	immobilized target	760 ± 10 µM
Cn1cc(-c2ccc(S(=O)(=O)n3ccc(/C=C/C(=O)Nc4ccccc4N)c3)cc2)cn1	HDAC5	inhibitor, competition pulldown	SW620 and MV4-11 lysate	1 h	> 30.2 µM
O=C(O)c1cc(-c2cccc(F)c2)ccn1	Tumor necrosis factor receptor superfamily member 1A extracellular domain	SPR OneStep	–	immobilized target	710 ± 40 µM
CC(C)(COP(=O)(O)OP(=O)(O)OC[C@H]1O[C@@H](n2cnc3c(N)ncnc32)[C@H](O)[C@@H]1OP(=O)(O)O)[C@@H](O)C(=O)NCCC(=O)NCCS	Thialysine N-epsilon-acetyltransferase (Homo sapiens, UniProt Q96F10)	competitor, competition MS pulldown	SW-620 cell lysate	added: photo-immobilized beads	8.12 µM
CCCCOc1ccc(CC(=O)NO)cc1	HDAC5	inhibitor, competition pulldown	SW620 and MV4-11 lysate	1 h	> 30.2 µM
CC(=O)N[C@H](C(=O)N1C[C@H](O)C[C@H]1C(=O)NCc1ccc(-c2scnc2C)cc1)C(C)(C)SCCCCCCNC(=O)C[C@@H]1N=C(c2ccc(Cl)cc2)c2c(sc(C)c2C)-n2c(C)nnc21	VHL/BRD3, BD1; with Elongin B/C (Homo sapiens, UniProt P40337+Q15059)	ITC	–	25 °C, PROTAC:Brd3^BD1, ternary	0.207 ± 0.002 µM
OC[C@H]1O[C@@](CO)(OC[C@@]2(OC[C@@]3(O[C@H]4O[C@H](CO)[C@@H](O)[C@H](O)[C@H]4O)O[C@H](CO)[C@@H](O)[C@@H]3O)O[C@H](CO)[C@@H](O)[C@@H]2O)[C@@H](O)[C@@H]1O	uncharacterized protein (Streptococcus pneumoniae, UniProt A0A0H2ZPW1)	binder	–	–	0.6 µM
Cc1cccc(NC(=O)Cn2cc(CO)c3ccccc32)c1	SCN8A C-terminal domain	binding	–	–	9.83 ± 0.29 µM
CC(=O)N1c2ccc(-c3ccc(C(=O)O)cc3)cc2[C@H](Nc2ccc(Cl)cc2)C[C@@H]1C	elongin C (Spodoptera frugiperda, UniProt A0A2H1WSX9+A0A9R0EEM2)	ternary complex formation, degrader, AlphaLISA	–	–	> 0.5 µM
O=C(Nc1nnc(-c2ccncc2)s1)C(F)(F)I	MAPK10 (Homo sapiens, UniProt P53779)	–	–	pH 7.4	6.49 µM and 19 µM
O=C(CCCCCCNC(=O)c1cnc(N(c2ccccc2)c2ccccc2Cl)nc1)NO	GATD3	inhibitor, competition pulldown	SW620 and MV4-11 lysate	1 h	1.83 µM
O=P([O-])([O-])O.[Na+].[Na+]	SAR11_1179 protein (Candidatus Pelagibacter ubique)	binding, isothermal titration calorimetry	–	one-set-of-sites model	0.107 µM and 0.163 µM and 0.128 µM
O=C(O)CCc1nc2ccccc2c2nc(Cc3ccccc3)nn12	USP5 ZnF-UBD domain	–	–	–	847 µM
CC(=O)c1cnc2ccc(-c3cc(Cl)c(O)c(Cl)c3)nc2c1N[C@H]1CC[C@H](CN(C)C)CC1	Probable receptor-like protein kinase At5g59700 (Arabidopsis thaliana, UniProt Q9FN92)	binding, SPR	–	–	19.4 µM
COCCOCCc1c(C)c2cc(OC)c(O)c(C=O)c2oc1=O	Serine/threonine-protein kinase/endoribonuclease IRE1 (Mus musculus, UniProt Q9EQY0, N772Y)	microscale thermophoresis	–	–	0.87 µM and 0.81 µM
CS(=O)(=O)NC(=O)c1cc(-c2ccc(N)cc2)ccn1	Tumor necrosis factor receptor superfamily member 1A extracellular domain	binding, SPR OneStep	–	–	984 ± 117 µM
CC(=O)C(=O)[C@@H](O)CO	RapC	–	–	–	566 µM

Structure (SMILES)	target	assay	system	conditions	Kd
Cc1sc2ncn(CC(=O)O)c(=O)c2c1C	USP5 ZnF-UBD domain	–	–	–	238 µM
CN(C)Cc1c(C(=O)NCCOc2ccc(C(=O)NO)cc2)oc2ccccc12	HDAC5	inhibitor, competition pulldown	SW620 and MV4-11 lysate	1 h	> 30.2 µM
CC(C)C[C@H](NC(=O)[C@H](Cc1c[nH]cn1)NC(=O)[C@H](CCCNC(=N)N)NC(=O)[C@H](CCCNC(=N)N)NC(=O)[C@@H](NC(=O)CNC(=O)[C@H](Cc1c[nH]cn1)NC(=O)[C@@H]1CCCN1C(=O)[C@H](CO)NC(=O)[C@@H]1CCCN1)[C@@H](C)O)C(=O)N1CCC[C@H]1C(=O)N[C@@H](CO)C(=O)N1CCC[C@H]1C(=O)N1CCC[C@H]1C(=O)O	Growth factor receptor-bound protein 2, C-terminal SH3 domain (GRB2, Homo sapiens, UniProt P62993)	binding to C-terminal SH3 domain, NMR titration	–	–	650 µM
O=C(O)CCC1=Nc2cccc3cccc(c23)N1	USP5 ZnF-UBD domain	–	–	–	> 1000 µM
O=C(CCCCCCC(=O)Nc1ccc([C@H]2O[C@@H](CSc3nc(-c4ccccc4)c(-c4ccccc4)o3)C[C@@H](c3ccc(CO)cc3)O2)cc1)NO	GATD3	inhibitor, competition pulldown	SW620 and MV4-11 lysate	1 h	> 30.2 µM
COc1ccc(C=C2SC(=O)N(C(C)C(=O)O)C2=O)cc1 (stereo not drawn)	USP5 ZnF-UBD domain	–	–	–	> 1000 µM
C/C=C1\NC(=O)[C@H]2CSSCC/C=C/[C@H](CC(=O)N[C@H](C(C)C)C(=O)N2)OC(=O)[C@H](C(C)C)NC1=O	GATD3	inhibitor, competition pulldown	SW620 and MV4-11 lysate	1 h	> 30.2 µM
CC(=O)Nc1ccc(S(=O)(=O)N2CCN(CC(O)COc3ccc4ccccc4c3)CC2)cc1 (stereo not drawn)	SCN8A C-terminal domain	SPR	PBS with 0.005% Tween-20 and 2% DMSO	25 °C, immobilised C-terminal domain	3.96 ± 0.1 µM
NC(=O)c1cc(-n2c(CCC(=O)O)nc3ccccc32)cs1	USP5 ZnF-UBD domain	–	–	–	> 1000 µM
CCCC(CCC)C(=O)O	GATD3	inhibitor, competition pulldown	SW620 and MV4-11 lysate	1 h	> 3020 µM
O=C(O)CCn1cnc2ccccc21	USP5 ZnF-UBD domain	–	–	–	> 1000 µM
O=C(O)c1cc(-c2ccccc2F)ccn1	Tumor necrosis factor receptor superfamily member 1A extracellular domain	binding, SPR	–	irregular sensorgram	590 ± 60 µM
NS(=O)(=O)c1ccccc1	CA9 (Homo sapiens, UniProt Q16790)	binding	–	pH 7	0.5 µM
O=C(O)CCC(=O)Nc1ccccc1	USP5 ZnF-UBD domain	–	–	–	> 1000 µM
Cc1c[nH]c2cc(-c3ccnc(C(=O)O)c3)ccc12	Tumor necrosis factor receptor superfamily member 1A extracellular domain	binding, SPR OneStep	–	–	372 ± 69 µM
O=C(O)Cn1ccc2ccccc2c1=O	USP5 ZnF-UBD domain	–	–	–	> 1000 µM
O=C(O)c1cc(-c2ccc(F)cc2)cc(CO)n1	Tumor necrosis factor receptor superfamily member 1A extracellular domain	binding, SPR OneStep	–	–	1090 ± 140 µM
CC(=O)Nc1ccc(C(=O)Nc2ccccc2N)cc1	GATD3	inhibitor, competition pulldown	SW620 and MV4-11 lysate	1 h	> 30.2 µM
O=C(C[C@@H](C(F)F)n1ccc(F)n1)N1CCC(O)(Cn2cnc3c(cnn3-c3ccc(F)cc3)c2=O)CC1	USP7 (Homo sapiens, UniProt Q93009, V517F)	isothermal titration calorimetry	–	USP7 V517F	3.63 ± 1.48 µM
Nc1ncnc2c1ncn2[C@@H]1O[C@H](COP(=O)(O)OP(=O)(O)O)[C@@H](O)[C@H]1O	CKMT1A (Homo sapiens, UniProt P12532, E265Q)	microscale thermophoresis	–	pH 8.5, E227Q mutant, added: creatine 10 mM	5 ± 2 µM
N[C@@H](CC(=O)O)C(=O)O	Methyl-accepting chemotaxis protein, ligand-binding domain (Pectobacterium atrosepticum, UniProt Q6D6I9)	isothermal titration calorimetry	–	pH 6.0, 25 °C, ligand-binding domain	370 ± 82 µM

For quick reference, copied from above:
Structure (SMILES)	target	assay	system	conditions	Kd
Cc1cccc(NC(=O)Cn2cc(CO)c3ccccc32)c1	SCN8A C-terminal domain	binding	–	–	9.83 ± 0.29 µM
NC(=O)c1cc(-n2c(CCC(=O)O)nc3ccccc32)cs1	USP5 ZnF-UBD domain	–	–	–	> 1000 µM
CS(=O)(=O)NC(=O)c1cc(-c2ccc(N)cc2)ccn1	Tumor necrosis factor receptor superfamily member 1A extracellular domain	binding, SPR OneStep	–	–	984 ± 117 µM
CC(=O)C(=O)[C@@H](O)CO	RapC	–	–	–	566 µM
Cn1cc(-c2ccc(S(=O)(=O)n3ccc(/C=C/C(=O)Nc4ccccc4N)c3)cc2)cn1	HDAC5	inhibitor, competition pulldown	SW620 and MV4-11 lysate	1 h	> 30.2 µM
CC(=O)N[C@H](C(=O)N1C[C@H](O)C[C@H]1C(=O)NCc1ccc(-c2scnc2C)cc1)C(C)(C)SCCCCCCNC(=O)C[C@@H]1N=C(c2ccc(Cl)cc2)c2c(sc(C)c2C)-n2c(C)nnc21	VHL/BRD3, BD1; with Elongin B/C (Homo sapiens, UniProt P40337+Q15059)	ITC	–	25 °C, PROTAC:Brd3^BD1, ternary	0.207 ± 0.002 µM
O=C(O)c1cc(-c2ccc3c(c2)OCCO3)ccn1	Tumor necrosis factor receptor superfamily member 1A extracellular domain	SPR OneStep	–	immobilized target	1423 ± 1 µM
